Values quoted from earlier work, collected from citations in different studies.
Each line is one published result; not all experiments were run side by side. ± marks the error that the study gave.

SMILES | cell line | test | conditions | how to read | endpoint | value
CC(C)c1c(O)c(O)c2c(c1O)C(=O)C(O)=C1C(C)(C)CCCC12C (stereo not drawn) | MCF7 |  |  |  | GI50 | 5500 ± 800 nM
CC1=C(C)C(=O)OC(C(C)(O)C2(O)CCC3(O)C4CC5OC56CC=CC(=O)C6(C)C4CCC32C)C1 (stereo not drawn) | Hep G2 | cell growth |  |  | IC50 | 640 nM
CCCCCCCC(=O)NCC(=O)N[C@@H](C)C(=O)N[C@@H](CC(C)C)C(=O)N[C@](C)(CC)C(=O)N[C@@H](C)C(=O)N[C@H](C(=O)N[C@H](CO)CC(C)C)[C@@H](C)CC | A549 | cell growth, MTT |  |  | IC50 | 4000 nM
CC1=C(CO)C(=O)OC(C(C)C2CC3OC34C3CC5OC56C(O)C=CC(=O)C6(C)C3CCC24C)C1 (stereo not drawn) | NCI-H460 | cell growth |  |  | IC50 | 3100 nM
C[C@H](NC(=O)[C@H](Cc1c[nH]cn1)NC(=O)[C@H](CO)NC(=O)[C@@H](N)CC(=O)O)C(=O)N[C@@H](CCCCN)C(=O)N[C@@H](CCCNC(=N)N)C(=O)N[C@@H](Cc1c[nH]cn1)C(=O)N[C@@H](Cc1c[nH]cn1)C(=O)NCC(=O)N[C@@H](Cc1ccc(O)cc1)C(=O)N[C@@H](CCCCN)C(=O)N[C@@H](CCCNC(=N)N)C(=O)N[C@@H](CCCCN)C(=O)N[C@@H](Cc1ccccc1)C(=O)N[C@@H](Cc1c[nH]cn1)C(=O)N[C@@H](CCC(=O)O)C(=O)N[C@@H](CCCCN)C(=O)N[C@@H](Cc1c[nH]cn1)C(=O)N[C@@H](Cc1c[nH]cn1)C(=O)N[C@@H](CO)C(=O)N[C@@H](Cc1c[nH]cn1)C(=O)N[C@@H](CCCNC(=N)N)C(=O)NCC(=O)N[C@@H](Cc1ccc(O)cc1)C(=O)O | human gingival fibroblasts | IL6 production | 3.3 µM, with: Porphyromonas gingivalis outer-membrane protein 10.0 µg/mL |  | inhibition | 37%
Cc1cc2c(c(=O)o1)C=C1CC[C@H](C(C)Cn3cnc(N)c4ncnc3-4)C[C@@H]1O2 (stereo partly drawn) | MC65 Tet-Off | protection from amyloid beta toxicity |  |  | EC50 | 150 nM
C#CCN[C@@H]1C=C[C@]2(O[C@H]([C@@H](CC)C(=O)[C@@H](C)[C@@H](O)[C@H](C)[C@@H]3O[C@@H]([C@@H](CC)C(=O)O)CC[C@@H]3C)[C@@H](C)C[C@H]2C)O[C@@]12CC[C@@](C)([C@H]1CC[C@](O)(CC)[C@H](C)O1)O2 | breast cancer stem cells |  |  | relative to: salinomycin | activity ratio | ~10 fold
CC(C)=CCC/C(C)=C/C[P+](c1ccccc1)(c1ccccc1)c1ccccc1 | HCT-116 | cell growth |  |  | GI50 | 720 nM
CC1=C(C)C(=O)OC(C(C)(O)C2(O)CCC3(O)C4CC5OC56C(O)C=CC(=O)C6(C)C4CCC32C)C1 (stereo not drawn) | MCF7/BUS |  |  |  | IC50 | 1100 nM
Clc1ccccc1C(c1ccccc1)(c1ccccc1)n1cccn1 | microglia | inhibitor | concentration not given, with: amyloid-beta oligomers |  | microglial activation and neurotoxicity | inhibited
C=CCc1cc(OC)c(OC)c(OC)c1OC | MCF7 | cell growth |  |  | IC50 | 193000 nM
CSC([S-])=NN=Cc1ccc(O)cc1[O-].[C-]#[O+].[Ru+2].c1ccc(P(c2ccccc2)c2ccccc2)cc1.c1ccc(P(c2ccccc2)c2ccccc2)cc1 | MCF7 |  | 1 day |  | apoptotic activity | 41.2 µM

Some of these lines once more:
SMILES | cell line | test | conditions | how to read | endpoint | value
CSC([S-])=NN=Cc1ccc(O)cc1[O-].[C-]#[O+].[Ru+2].c1ccc(P(c2ccccc2)c2ccccc2)cc1.c1ccc(P(c2ccccc2)c2ccccc2)cc1 | MCF7 |  | 1 day |  | apoptotic activity | 41.2 µM
